Experimental data pooled from the literature.
Protocols differ between the studies behind these lines. Values joined by “and” are separate records of one study, mostly repeats; a detail may differ. Numbers after ± are the reported error.

Compound	cell line	assay	conditions	how to read	measurement	value
CCCCCCCC(=O)SCC/C=C/[C@@H]1CC(=O)NCc2cccc(n2)C2=N[C@@](C)(CS2)C(=O)N[C@@H](C(C)C)C(=O)O1	SW-620	sub-G1 accumulation, propidium iodide flow cytometry	24 h	–	effective concentration	> 10 nM
CCN(CC)CCOc1ccc(-c2nnn(Cc3ccc(OC)cc3)c2N)cc1	primary human vestibular schwannoma	–	5 µM, 7 days	–	S100B-positive cell count	decreased
CCCCCCCCCCCCCCCC(=O)N[C@@H](CCC(=O)NCCOCCOCCC(=O)NCCOCCOCCC(=O)NCCCC[C@H](NC(=O)[C@H](CC(=O)O)NC(=O)[C@H](CC(C)C)NC(=O)[C@H](Cc1ccc(O)cc1)NC(=O)[C@H](CCCCN)NC(=O)[C@H](CO)NC(=O)[C@H](Cc1ccc(O)cc1)NC(=O)[C@H](CC(=O)O)NC(=O)[C@H](CO)NC(=O)[C@@H](NC(=O)[C@H](Cc1ccccc1)NC(=O)[C@@H](NC(=O)CNC(=O)[C@H](CCC(N)=O)NC(=O)[C@@H](CO)NC(=O)[C@@H](N)Cc1c[nH]cn1)[C@@H](C)O)[C@@H](C)O)C(=O)N[C@@H](CCCNC(=N)N)C(=O)N[C@@H](CCCNC(=N)N)C(=O)N[C@@H](C)C(=O)N[C@@H](CCC(N)=O)C(=O)N[C@@H](CC(=O)O)C(=O)N[C@@H](Cc1ccccc1)C(=O)N[C@H](C(=O)N[C@@H](CCC(N)=O)C(=O)N[C@@H](Cc1c[nH]c2ccccc12)C(=O)N[C@@H](CC(C)C)C(=O)N[C@@H](CC(C)C)C(=O)N[C@@H](CC(N)=O)C(=O)N[C@H](C(=O)NCC(=O)NCC(=O)N1CCC[C@H]1C(=O)N[C@@H](CO)C(=O)N[C@@H](CO)C(=O)NCC(=O)N[C@@H](C)C(=O)N1CCC[C@H]1C(=O)N1CCC[C@H]1C(=O)N1CCC[C@H]1C(=O)N[C@@H](CO)C(N)=O)[C@@H](C)O)C(C)C)C(=O)O	LX-2 hepatic stellate cells	Western blot, refers to: α-SMA, TGF-β, phospho-Smad2/3	concentration not given	–	fibrosis marker protein levels	decreased
CC[C@H](C)[C@H](NC(=O)[C@@H](NC(=O)[C@H](CC(N)=O)NC(=O)[C@H](CCC(N)=O)NC(=O)[C@@H]1CCCN1C(=O)[C@@H](NC(=O)[C@H](Cc1ccc(O)cc1)NC(=O)CNC(=O)[C@H](Cc1ccc(O)cc1)NC(=O)[C@H](Cc1c[nH]c2ccccc12)NC(=O)[C@H](Cc1c[nH]cn1)NC(=O)[C@H](Cc1ccc(O)cc1)NC(=O)CNC(=O)CCOCCOCCOCCNC(=S)Nc1ccc(C2=[N+]3C(=C(c4ccc(OC)cc4)c4cc(Cl)c(-c5ccc(OC)cc5)n4[B-]3(F)F)C=C2Cl)cc1)[C@@H](C)O)C(C)C)C(N)=O	HEp-2	–	10 µM, 24 h	relative to: unconjugated BODIPY 5	cellular uptake	~30 fold
C[C@H]1C(OCCCCCCCC[P+](c2ccccc2)(c2ccccc2)c2ccccc2)O[C@@H]2O[C@@]3(C)CCC4[C@H](C)CCC1[C@]42OO3 (stereo partly drawn)	T24	cell growth	concentration not given	relative to: compound over dihydroartemisinin	activity ratio	1260
Cc1cc(N)c2ccccc2[n+]1CCCCCCCCCCCCCC[n+]1c(C)cc(N)c2ccccc21	neuroblastoma TICs and skin-derived precursors	sphere formation	–	relative to: EC50 SKPs over EC50 NB TICs	selectivity ratio	> 50 fold and 59 fold
C[C@@H]1CCC2[C@@H](C)[C@@H](OCCC[P+](c3ccccc3)(c3ccccc3)c3ccccc3)O[C@@H]3O[C@@]4(C)CCC1[C@@]23OO4 (stereo partly drawn)	T24	MTT	72 h	relative to: HUVEC IC50 over T24 IC50	selectivity index	1.67
[N]#[Os]([Cl])([Cl])[Cl].c1cnc2c(c1)ccc1cccnc12	MRC-5 and A2780	cytotoxicity	–	relative to: MRC-5 over A2780 IC50	selectivity ratio	8 fold
O=[N+]([O-])c1ccc(Sc2nnc[nH]2)c2nonc12	Ramos	LFQ mass spectrometry	10 µM, 8 h	–	downregulated proteins	533 count
CC[C@H](C)[C@H](NC(=O)[C@H](CCCNC(=N)N)NC(=O)[C@H](CCCNC(=N)N)NC(=O)[C@H](CC(C)C)NC(=O)[C@H](Cc1c[nH]c2ccccc12)NC(=O)[C@H](CCCCN)NC(=O)[C@H](CCCNC(=N)N)NC(=O)[C@H](CCCCN)NC(=O)[C@H](CCCNC(=N)N)NC(=O)[C@H](CCCNC(=N)N)NC(=O)CN)C(=O)NCC(=O)N[C@@H](CCCCN)C(=O)NCC(=O)N[C@H](C(=O)N[C@@H](CCCCN)C(=O)N[C@H](C(=O)N[C@H](C(=O)NCC(=O)NCC(=O)N[C@@H](C)C(=O)N[C@@H](C)C(=O)N[C@@H](CC(C)C)C(=O)N[C@@H](CC(=O)O)C(=O)N[C@@H](Cc1c[nH]cn1)C(=O)N[C@@H](CC(C)C)C(N)=O)[C@@H](C)CC)[C@@H](C)CC)C(C)C	HL-60	–	32 µg/mL, 1 min	–	lysed cells	12%
CCCCCCCCCn1cc(C(N)(CO)CO)nn1	mouse hippocampal neural stem cells	refers to: Map2, Gap43, Mbp, Tuj1	concentration not given, with: Aβ42	–	mRNA level	increased
CC(C)CC(O)(CC(C)C)c1cn(C(=O)N2CCCC2)nn1	mouse T-cells	SILAC proteomics, refers to: TMSB4X	1 nM, 6 h, unit not given	relative to: DMSO	protein level	1.19 ± 0.08
CC/C=C\C/C=C\C/C=C\C/C=C\C/C=C\C/C=C\CCC(=O)Nc1ccn(C2OC(CO)C(O)C2(F)F)c(=O)n1 (stereo not drawn)	NCI-H522	NCI60 screen	–	–	CC50	54.1 µM
O=C(O)CCC(NP(=O)(O)OCCC[C@@H](NC(=O)CCC(NC(=O)CCCCCNC(=O)CCCCCNC(=O)c1ccc([18F])cc1)C(=O)O)C(=O)O)C(=O)O (stereo partly drawn)	CWR22Rv1	–	2 h	–	surface-bound fraction	8.69 ± 0.94%
CCCCN(CCCC)CC(O)COc1c2ccoc2c(OC)c2oc(CC)cc(=O)c12 (stereo not drawn)	SW-620	MTT	–	relative to: IC50 HaCaT over IC50 SW-620	selectivity index	3.81
CC[C@H]1OC(=O)[C@H](C(C)C)NC(=O)[C@H](C)OC(=O)[C@@H](C(C)C)NC(=O)[C@@H](C(C)C)OC(=O)[C@H](C(C)C)NC(=O)[C@H](C)OC(=O)[C@@H](C(C)C)NC(=O)[C@@H](C(C)C)OC(=O)[C@H](C(C)C)NC(=O)[C@H](C)OC(=O)[C@@H](C(C)C)NC1=O	U-87 MG	annexin V/PI flow cytometry	0.8 µM, 72 h	relative to: untreated control	apoptotic cells increase	20.4%
CCCCc1ccc(C(=O)N[C@@H](CO)C(=O)N[C@H](C(=O)N2CCC[C@H]2C(=O)N[C@@H](CC(N)=O)C(=O)NCC(=O)N[C@@H](CC(C)C)C(=O)O)[C@@H](C)OP(=O)(O)O)cc1	HeLa-H2B-GFP, QQ transfected	–	30 µM	–	aberrant prometaphase/metaphase cells	54%
COc1c(C)cc2c(c1OC)OCO2	HCT-116	cell growth or viability	72 h	–	GI50	> 250 µM
COc1cc2c(cc1OC)C(=O)C(=Cc1ccc(N3CC[N+](C)(C)CC3)cc1)C2	PC-12	lipid peroxidation	concentration not given, with: amyloid beta 1-42	–	MDA level	decreased
CC(=O)N[C@H](C(=O)N[C@@H](C)C(=O)N[C@@H](CCC(N)=O)C(=O)N[C@@H](CCC(N)=O)C(=O)N[C@@H](C)C(=O)N[C@@H](C)C(=O)N[C@@H](CC(N)=O)C(=O)N[C@H](C(=O)N[C@@H](C)C(=O)N[C@@H](C)C(=O)N[C@H](C(=O)N[C@@H](CC(C)C)C(=O)N[C@@H](CCCCN)C(=O)N[C@@H](CC(N)=O)C(=O)N[C@@H](CO)C(=O)N[C@@H](CCCNC(=N)N)C(=O)N[C@@H](CO)C(=O)N[C@@H](CC(C)C)C(=O)NCC(=O)N[C@@H](CCC(=O)O)C(=O)N[C@@H](CC(N)=O)C(=O)N[C@@H](CC(=O)O)C(=O)N[C@@H](CC(=O)O)C(=O)NCC(=O)N[C@@H](CC(N)=O)C(=O)N[C@@H](CC(N)=O)C(=O)N[C@@H](CCC(=O)O)C(=O)N[C@@H](CC(=O)O)C(=O)N[C@@H](CC(N)=O)C(=O)N[C@@H](CCC(=O)O)C(=O)N[C@@H](CCCCN)C(=O)N[C@@H](CC(C)C)C(=O)N[C@@H](CCCNC(=N)N)C(N)=O)[C@@H](C)O)C(C)C)C(C)C	HepG2	–	320 µg/mL, 15 days	relative to: control	colony formation	decreased
CC(=O)N1CCCC[C@H]1C(=O)NC(C)(C)C(=O)N1CCCC[C@H]1C(=O)NC(C)(C)C(=O)NC(C)(C)C(=O)N[C@@H](CC(C)C)C(=O)NCCC(=O)N[C@H](C)C(=O)NC(C)(C)C(=O)NC(C)(C)C(=O)N1CCCC[C@H]1C(=O)NC(C)(C)C(=O)NCC(=O)N[C@@H](CC(C)C)C(=O)NC(C)(C)C(=O)N[C@@H](CC(C)C)C[N+]1=C2CCCN2CCC1	39 cancer cell lines	–	48 h, mean over panel	–	GI50	1.2 µM
